{"data": "Assay results pooled from the literature", "cell line": "ASPC1", "read-out": "cell growth or viability", "note": "Each line is one published result; not all experiments were run side by side."}
{"SMILES": "CC(=O)Oc1ccc(/C=C/C(=O)Nc2nc(=O)n([C@@H]3O[C@H](C)[C@@H](OC(C)=O)[C@H]3OC(C)=O)cc2F)cc1", "test": "MTT", "setting": "72 h", "IC50 [µM]": 57.1}
{"SMILES": "COC(=O)[C@@H](Cc1cn(Cc2ccc(C)cc2)nn1)NC(=O)OCC1c2ccccc2-c2ccccc21", "test": "MTS", "setting": "72 h", "IC50 [µM]": "> 100"}
{"SMILES": "Cc1nc(-c2ccc(Cl)cc2)nc(N2CCC(C)(N)CC2)c1Cc1ccccc1", "test": "WST-1", "setting": "72 h", "IC50 [µM]": 5.8}
{"SMILES": "CC(=O)O[C@@H]1[C@H](OC(C)=O)[C@@H](C)O[C@H]1n1cc(F)c(NC(=O)/C=C/c2ccc(O)c(O)c2)nc1=O", "test": "MTT", "setting": "72 h", "IC50 [µM]": 133}
{"SMILES": "COC1=C(OC)C(O)C(CC=C(C)CCC=C(C)CCC=C(C)C(=O)O)C(C)C1=O (stereo not drawn)", "test": "MTS", "setting": "48 h", "IC50 [µM]": "> 25"}
{"SMILES": "CC1(N)CCN(c2nc(N(Cc3ccccc3)Cc3ccccc3)nc3c2ncn3Cc2ccccc2)CC1", "test": "WST-1", "setting": "72 h", "IC50 [µM]": 6.3}
{"SMILES": "N#C/C(=C\\c1cn(-c2ccccc2)nc1-c1ccc(Br)cc1)c1nc2ccccc2[nH]1", "test": "ATP luminescence", "setting": "72 h", "IC50 [µM]": "> 100"}
{"SMILES": "CC(=O)Oc1cccc(/C=C/C(=O)Nc2nc(=O)n([C@@H]3O[C@H](C)[C@@H](OC(C)=O)[C@H]3OC(C)=O)cc2F)c1", "test": "MTT", "setting": "72 h", "IC50 [µM]": 37}
{"SMILES": "Cc1ccc(-c2nn(-c3ccccc3)cc2/C=C(\\C#N)c2nc3ccccc3[nH]2)cc1", "test": "ATP luminescence", "setting": "72 h", "IC50 [µM]": "> 100"}
{"SMILES": "CCCCCCCCCCCCCCOC(=O)Nc1ccn([C@@H]2O[C@H](CO)[C@@H](O)C2(F)F)c(=O)n1", "test": "MTT", "setting": "48 h", "IC50 [µM]": 1.28}
{"SMILES": "N#C/C(=C\\c1cn(-c2ccccc2)nc1-c1cccc(Br)c1)c1nc2ccccc2[nH]1", "test": "ATP luminescence", "setting": "72 h", "IC50 [µM]": 82.5}
{"SMILES": "COc1ccc2c(c1)C(=C1Nc3ccccc3C1=NOCC(O)CO)C(=O)N2 (stereo not drawn)", "test": "MTS", "setting": "48 h", "IC50 [µM]": 1.3}
{"SMILES": "COC(=O)[C@@H](Cc1cn(Cc2ccc(C#N)cc2)nn1)NC(=O)OCC1c2ccccc2-c2ccccc21", "test": "MTS", "setting": "72 h", "IC50 [µM]": 1.73}
{"SMILES": "N#C/C(=C\\c1cn(-c2ccccc2)nc1-c1ccc(F)cc1)c1nc2ccccc2[nH]1", "test": "ATP luminescence", "setting": "72 h", "IC50 [µM]": 32.8}
{"SMILES": "Cc1ncsc1-c1ccc(C(CO)NC(=O)C2CC(O)CN2C(=O)C(C(C)C)n2cc(-c3ccc(COc4c(-c5c(C)c(F)cc6[nH]ncc56)c(C5CC5)cc5c(N6CC7CC6CN7)nc(OC6CCOCC6)nc45)cc3)nn2)cc1 (stereo not drawn)", "test": "ATP luminescence", "setting": "6 days", "IC50 [µM]": 0.019}
{"note": "Repeated from above:"}
{"SMILES": "CCCCCCCCCCCCCCOC(=O)Nc1ccn([C@@H]2O[C@H](CO)[C@@H](O)C2(F)F)c(=O)n1", "test": "MTT", "setting": "48 h", "IC50 [µM]": 1.28}
